Assay results from different studies.
Protocols differ between the studies behind these lines.
B1: NUP62 301-522 (Homo sapiens, UniProt P37198); sequence looked up; chain GIPSNTAAAVTAPPGPGAAAGAAASSAMTYAQLESLINKWSLELEDQERHFLQQATQVNAWDRTLIENGEKITSLHREVEKVKLDQKRLDQELDFILSQQKELEDLLSPLEELVKEQSGTIYLQHADEEREKTYKLAENIDAQLKRMAQDLKDIIEHLNTSGAPADTSDPLQQICKILNAHMDSLQWIDQNSALLQRKVEEVTKVCEGRRKEQERSFRITFD
B2: POL31 (Saccharomyces cerevisiae, UniProt P46957); sequence looked up; chain MDALLTKFNEDRSLQDENLSQPRTRVRIVDDNLYNKSNPFQLCYKKRDYGSQYYHIYQYRLKTFRERVLKECDKRWDAGFTLNGQLVLKKDKVLDIQGNQPCWCVGSIYCEMKYKPNVLDEVINDTYGAPDLTKSYTDKEGGSDEIMLEDESGRVLLVGDFIRSTPFITGVVVGILGMEAEAGTFQVLDICYPTPLPQNPFPAPIATCPTRGKIALVSGLNLNNTSPDRLLRLEILREFLMGRINNKIDDISLIGRLLICGNSVDFDIKSVNKDELMISLTEFSKFLHNILPSISVDIMPGTNDPSDKSLPQQPFHKSLFDKSLESYFNGSNKEILNLVTNPYEFSYNGVDVLAVSGKNINDICKYVIPSNDNGESENKVEEGESNDFKDDIEHRLDLMECTMKWQNIAPTAPDTLWCYPYTDKDPFVLDKWPHVYIVANQPYFGTRVVEIGGKNIKIISVPEFSSTGMIILLDLETLEAETVKIDI
B3: rasC Q62L/E157R (Dictyostelium discoideum, UniProt P32253); sequence looked up; chain MSKLLKLVIVGDGGVGKSALTIQLTQNQFIAEYDPTIENSYRKQVNIDEEVYMLDILDTAGLEEYSAMRDQYIRSGRGFLIVYSIISRASFEAVTTFREQILRVKDLSTYPIVIIGNKADLPDKDRKVPPMEGKELAKSFGAPFLETSAKSRVNVERAFFTLVREIKRWNQNPQNEEMLPPKKRGCIIL
B4: POL30 1-258 (Saccharomyces cerevisiae, UniProt P15873); chain MLEAKFEEASLFKRIIDGFKDCVQLVNFQCKEDGIIAQAVDDSRVLLVSLEIGVEAFQEYRCDHPVTLGMDLTSLSKILRCGNNTDTLTLIADNTPDSIILLFEDTKKDRIAEYSLKLMDIDADFLKIEELQYDSTLSLPSSEFSKIVRDLSQLSDSINIMITKETIKFVADGDIGSGSVIIKPFVDMEHPETSIKLEMDQPVDLTFGAKYLLDIIKGSSLSDRVGIRLSSEAPALFQFDLKSGFLQFFLAPKFNDEE
B5: NUP60 200-318 (Saccharomyces cerevisiae, UniProt P39705); sequence looked up; chain SMNTTLGSIGSRKYSFNYSSLPSPYKTTVYRYSAAKKIPDTYTANTSAQSIASAKSVRSGVSKSAPSKKISNTAAALVSLLDENDSKKNNAASELANPYSSYVSQIRKHKRVSPNAAPR
B6: SIS1 residues 1-81 (Saccharomyces cerevisiae, UniProt P25294); chain SMVKETKLYDLLGVSPSANEQELKKGYRKAALKYHPDKPTGDTEKFKEISEAFEILNDPQKREIYDQYGLEAARSGGPSFGP
B7: lpxC 1-305 (Escherichia coli, UniProt P0A725); chain MIKQRTLKRIVQATGVGLHTGKKVTLTLRPAPANTGVIYRRTDLNPPVDFPADAKSVRDTMLCTCLVNEHDVRISTVEHLNAALAGLGIDNIVIEVNAPEIPIMDGSAAPFVYLLLDAGIDELNCAKKFVRIKETVRVEDGDKWAEFKPYNGFSLDFTIDFNHPAIDSSNQRYAMNFSADAFMRQISRARTFGFMRDIEYLQSRGLCLGGSFDCAIVVDDYRVLNEDGLRFEDEFVRHKMLDAIGDLFMCGHNIIGAFTAYKSGHALNNKLLQAVLAKQEAWEYVTFQDDAELPLAFKAPSAVLA
B8: PBXIP1 443-561 (Homo sapiens, UniProt Q96AQ6); chain LENWGQDPGVSANASKAWHQKSHFQNSREWSGKEKWWDGQRDRKAEHWKHKKEESGRERKKNWGGQEDREPAGRWKEGRPRVEESGSKKEGKRQGPKEPPRKSGSFHSSGEKQKQPRWR
B9: cheW (Escherichia coli, UniProt P0A964); chain MTGMTNVTKLASEPSGQEFLVFTLGDEEYGIDILKVQEIRGYDQVTRIANTPAFIKGVTNLRGVIVPIVDLRIKFSQVDVDYNDNTVVIVLNLGQRVVGIVVDGVSDVLSLTAEQIRPAPEFAVTLSTEYLTGLGALGDRMLILVNIEKLLNSEEMALLDSAASEVA
B10: MED2/PGD1 four-helix bundle 1-431 (Saccharomyces cerevisiae); chain 1 MVVQNSPVSSVHTANFSERGSNTRTMTYKNKLTVCFDDILKVGAEMMMQQQLKNVQLDSYLVNGFSQSQQKLLKEKVKLFHGILDDLETSLSQSSSYLETLTALGKEKEKEREEAEKKRAEQENMRKVREQEELKKRQELEEASQQQQLQQNSKEKNGLGLNFSTTAPANTTDANGSKENYQELGSLQSSSQTQLENANAANNGAAFSPLTTTRIQSQQAQPSDVMFNDLNSMDISMFSGLDSTGFDSTAFNATVDETKGFDDNDSGNNYNDINISSIENNINNNINSTKNGKDNNNESNKNNNGDEKNKNNNEDNENNNNSSEKNNNNNNNNNNNNDDNGNNNNNNSGNDNNNTTNNDSNNKNNSITTGNDNENIVNNDLPTTVVSNPGDNPPPADNGEEYLTLNDFNDLNIDWSTTGDNGELDLSGFNI; chain 2 MDSIIPAGVKLDDLQVILAKNENETRDKVCKQINEARDEILPLRLQFNEFIQIMANIDQEGSKQADRMAKYLHIRDKILQLNDRFQTLSSHLEALQPLFSTVPEYLKTADNRDRSFQLLEPLSTYNKNGNAVCSTATVVSTNHSAAASTPTTTATPHANPITHAHSLSNPNSTATMQHNPLAGKRGPKSGSTMGTPTVHNSTAAAPIAAPKKPRKPRQTKKAKAQAQAQAQAQAQVYAQQSTVQTPITASMAAALPNPTPSMINSVSPTNVMGTPLTNMMSPMGNAYSMGAQNQGGQVSMSQFNGSGNGSNPNTNTNSNNTPLQSQLNLNNLTPANILNMSMNNDFQQQQQQQQQQQQPQPQYNMNMGMNNMNNGGKELDSLDLNNLELGGLNMDFL
B11: MDM4 23-150 (Homo sapiens, UniProt O15151); sequence looked up; chain QINQVRPKLPLLKILHAAGAQGEMFTVKEVMHYLGQYIMVKQLYDQQEQHMVYCGGDLLGELLGRQSFSVKDPSPLYDMLRKNLVTLATATTDAAQTLALAQDHSMDIPSQDQLKQSAEESSTSRKRT
B12: McsA (Bacillus subtilis, UniProt P37569); chain MICQECHERPATFHFTKVVNGEKIEVHICEQCAKENSDSYGISANQGFSIHNLLSGLLNMDSSFQNAGTQMFSHSEQISACPKCGMTFQQFRKIGRFGCSECYKTFHSNITPILRKVHSGNTVHAGKIPKRIGGNLHVRRQIDMLKKELESLIHQEEFENAAHVRDQIRLLEQSLKSTDSEEEQE
B13: Secisbp2 399-846 x (Rattus norvegicus, UniProt Q9QX72); sequence looked up; chain EFPNLSVASERRHRGESPKLQSKQQAQNDFKTGGKKSQVPVQLDLGGMLAALEKQQHAPHAKPSSRPVVFSVGAVPVLSKDASSGERGRRSSQVKTPHNPLDSSAAAAAAGKQREIPKAKKPTSLKKIILKERQERMQQRLQESAVSPTVASDDSQDVESGVTNQIPSPDNPTGPEKTEEPMSSTPVVEGESEEPAGTEFQRDPEACQPAPDSATFPKIHSRRFRDYCSQMLSKEVDACVTGLLKELVRFQDRMYQKDPVKAKTKRRLVLGLREVLKHLKLRKLKCIIISPNCEKTQSKGGLDDTLHTIIDCACEQNIPFVFALNRKALGRSLNKAVPVSIVGIFSYDGAQDQFHKMVELTMAARQAYKTMLETMRQEQAGEPGPQTPPSPPMQDPIQSTDEGTLASTGEEPHYIEIWRKHLEAYSQHALELEDSLEASTSQMMNLNL
B14: POMP (Homo sapiens, UniProt Q9Y244); chain MNARGLGSELKDSIPVTELSASGPFESHDLLRKGFSCVKNELLPSHPLELSEKNFQLNQDKMNFSTLRNIQGLFAPLKLQMEFKAVQQVQRLPFLSSSNLSLDVLRGNDETIGFEDILNDPSQSEVMGEPHLMVEYKLGLL
Chain of UniProt P32259 (whole entry, looked up): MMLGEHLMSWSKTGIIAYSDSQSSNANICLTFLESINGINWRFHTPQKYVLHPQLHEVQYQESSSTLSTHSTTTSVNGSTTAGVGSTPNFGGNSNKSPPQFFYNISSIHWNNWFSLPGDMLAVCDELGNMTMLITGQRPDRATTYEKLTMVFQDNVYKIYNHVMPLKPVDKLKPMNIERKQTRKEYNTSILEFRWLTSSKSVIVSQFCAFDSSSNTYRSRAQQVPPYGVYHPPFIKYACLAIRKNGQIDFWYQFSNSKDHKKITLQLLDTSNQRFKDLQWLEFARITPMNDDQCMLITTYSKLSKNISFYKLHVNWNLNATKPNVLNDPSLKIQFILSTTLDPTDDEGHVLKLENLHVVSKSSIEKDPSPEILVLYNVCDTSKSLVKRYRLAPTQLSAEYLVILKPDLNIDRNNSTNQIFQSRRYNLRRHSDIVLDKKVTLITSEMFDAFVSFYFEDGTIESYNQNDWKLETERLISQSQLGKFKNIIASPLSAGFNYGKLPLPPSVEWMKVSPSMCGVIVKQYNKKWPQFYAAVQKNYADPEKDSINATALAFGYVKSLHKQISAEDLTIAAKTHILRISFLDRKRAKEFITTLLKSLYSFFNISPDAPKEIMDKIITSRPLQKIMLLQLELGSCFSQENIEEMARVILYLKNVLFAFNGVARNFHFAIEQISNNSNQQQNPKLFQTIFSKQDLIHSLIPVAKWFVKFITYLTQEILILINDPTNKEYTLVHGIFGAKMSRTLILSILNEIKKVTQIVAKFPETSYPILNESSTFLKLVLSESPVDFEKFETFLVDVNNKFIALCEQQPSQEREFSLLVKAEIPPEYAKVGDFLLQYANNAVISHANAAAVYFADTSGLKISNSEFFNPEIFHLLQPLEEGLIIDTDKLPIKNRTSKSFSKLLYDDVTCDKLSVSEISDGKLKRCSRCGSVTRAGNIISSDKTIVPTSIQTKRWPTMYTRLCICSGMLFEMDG
Chain of UniProt P07271 (whole entry, unmodified, looked up): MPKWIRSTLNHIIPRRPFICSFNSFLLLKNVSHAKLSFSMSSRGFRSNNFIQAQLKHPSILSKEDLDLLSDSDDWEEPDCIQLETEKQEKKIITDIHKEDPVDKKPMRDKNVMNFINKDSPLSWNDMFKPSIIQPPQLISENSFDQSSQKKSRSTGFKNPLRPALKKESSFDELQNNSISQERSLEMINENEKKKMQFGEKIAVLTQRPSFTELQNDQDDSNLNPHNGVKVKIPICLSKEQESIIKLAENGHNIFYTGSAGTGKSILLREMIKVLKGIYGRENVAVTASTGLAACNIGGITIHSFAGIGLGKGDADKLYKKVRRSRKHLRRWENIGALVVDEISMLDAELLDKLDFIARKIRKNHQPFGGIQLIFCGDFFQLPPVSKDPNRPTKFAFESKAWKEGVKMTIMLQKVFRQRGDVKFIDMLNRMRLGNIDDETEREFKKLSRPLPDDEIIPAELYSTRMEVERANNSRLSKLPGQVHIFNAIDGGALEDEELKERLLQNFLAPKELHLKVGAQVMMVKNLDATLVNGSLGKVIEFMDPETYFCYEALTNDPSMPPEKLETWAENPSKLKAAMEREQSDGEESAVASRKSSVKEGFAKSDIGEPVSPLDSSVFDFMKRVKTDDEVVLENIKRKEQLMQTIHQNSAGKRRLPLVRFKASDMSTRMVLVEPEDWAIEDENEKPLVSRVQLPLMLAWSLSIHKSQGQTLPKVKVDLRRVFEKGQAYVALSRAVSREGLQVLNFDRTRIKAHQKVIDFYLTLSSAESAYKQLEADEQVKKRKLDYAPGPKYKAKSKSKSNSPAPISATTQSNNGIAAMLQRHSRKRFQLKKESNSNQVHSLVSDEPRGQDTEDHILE
Chain of UniProt Q9JHW4 (whole entry, looked up): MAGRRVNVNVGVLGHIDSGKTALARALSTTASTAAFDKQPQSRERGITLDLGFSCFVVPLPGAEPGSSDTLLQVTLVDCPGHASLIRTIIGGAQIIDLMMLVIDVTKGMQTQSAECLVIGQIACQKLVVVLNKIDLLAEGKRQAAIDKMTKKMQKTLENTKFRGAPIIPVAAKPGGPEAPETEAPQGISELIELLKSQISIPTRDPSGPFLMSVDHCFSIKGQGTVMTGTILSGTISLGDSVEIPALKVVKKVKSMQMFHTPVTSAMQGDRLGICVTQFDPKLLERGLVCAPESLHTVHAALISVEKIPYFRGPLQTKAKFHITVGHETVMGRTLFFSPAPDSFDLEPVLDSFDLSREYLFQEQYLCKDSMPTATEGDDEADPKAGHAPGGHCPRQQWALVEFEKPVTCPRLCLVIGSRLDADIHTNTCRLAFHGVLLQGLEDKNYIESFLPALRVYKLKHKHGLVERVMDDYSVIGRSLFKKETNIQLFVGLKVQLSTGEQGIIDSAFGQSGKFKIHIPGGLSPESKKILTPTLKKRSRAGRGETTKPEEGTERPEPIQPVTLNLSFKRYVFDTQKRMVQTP
Chain of UniProt P0AB58 (whole entry, looked up): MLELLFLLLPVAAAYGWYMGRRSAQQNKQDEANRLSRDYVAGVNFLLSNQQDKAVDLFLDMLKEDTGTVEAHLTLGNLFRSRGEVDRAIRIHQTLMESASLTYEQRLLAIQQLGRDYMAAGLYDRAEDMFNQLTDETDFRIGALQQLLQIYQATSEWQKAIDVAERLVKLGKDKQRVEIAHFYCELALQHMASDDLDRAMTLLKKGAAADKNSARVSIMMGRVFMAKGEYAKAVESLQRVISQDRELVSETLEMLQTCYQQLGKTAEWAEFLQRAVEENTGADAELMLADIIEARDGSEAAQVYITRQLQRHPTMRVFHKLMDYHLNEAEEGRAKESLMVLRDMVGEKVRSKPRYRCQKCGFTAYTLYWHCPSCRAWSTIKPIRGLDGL
Chain of UniProt O94267 (whole entry, looked up): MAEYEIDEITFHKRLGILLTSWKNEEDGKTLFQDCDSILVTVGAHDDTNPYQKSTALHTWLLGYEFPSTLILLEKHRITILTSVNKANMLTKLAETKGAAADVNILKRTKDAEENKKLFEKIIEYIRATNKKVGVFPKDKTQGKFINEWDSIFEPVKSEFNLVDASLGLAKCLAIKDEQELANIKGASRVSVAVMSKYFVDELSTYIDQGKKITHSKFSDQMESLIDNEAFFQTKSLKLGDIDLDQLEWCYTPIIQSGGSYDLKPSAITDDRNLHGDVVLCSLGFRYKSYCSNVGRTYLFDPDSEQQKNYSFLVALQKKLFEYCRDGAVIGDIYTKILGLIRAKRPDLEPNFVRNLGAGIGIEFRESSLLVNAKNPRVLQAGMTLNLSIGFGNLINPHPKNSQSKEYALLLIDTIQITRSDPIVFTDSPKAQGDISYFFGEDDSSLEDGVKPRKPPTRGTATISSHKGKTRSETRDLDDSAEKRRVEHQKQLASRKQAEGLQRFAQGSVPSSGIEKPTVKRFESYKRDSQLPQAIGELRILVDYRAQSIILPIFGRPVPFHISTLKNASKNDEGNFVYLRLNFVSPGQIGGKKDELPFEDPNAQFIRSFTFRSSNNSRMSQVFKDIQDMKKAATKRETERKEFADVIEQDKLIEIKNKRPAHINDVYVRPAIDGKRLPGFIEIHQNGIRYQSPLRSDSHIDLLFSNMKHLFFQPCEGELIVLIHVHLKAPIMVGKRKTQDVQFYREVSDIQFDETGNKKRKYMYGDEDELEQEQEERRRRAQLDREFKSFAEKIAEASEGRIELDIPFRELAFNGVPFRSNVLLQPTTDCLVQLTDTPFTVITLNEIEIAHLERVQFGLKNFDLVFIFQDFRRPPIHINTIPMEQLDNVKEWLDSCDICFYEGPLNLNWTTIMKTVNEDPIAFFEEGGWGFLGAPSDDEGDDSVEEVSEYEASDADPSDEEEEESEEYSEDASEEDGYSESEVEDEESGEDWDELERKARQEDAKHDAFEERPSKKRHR
Chain of UniProt O94529 (whole entry, looked up): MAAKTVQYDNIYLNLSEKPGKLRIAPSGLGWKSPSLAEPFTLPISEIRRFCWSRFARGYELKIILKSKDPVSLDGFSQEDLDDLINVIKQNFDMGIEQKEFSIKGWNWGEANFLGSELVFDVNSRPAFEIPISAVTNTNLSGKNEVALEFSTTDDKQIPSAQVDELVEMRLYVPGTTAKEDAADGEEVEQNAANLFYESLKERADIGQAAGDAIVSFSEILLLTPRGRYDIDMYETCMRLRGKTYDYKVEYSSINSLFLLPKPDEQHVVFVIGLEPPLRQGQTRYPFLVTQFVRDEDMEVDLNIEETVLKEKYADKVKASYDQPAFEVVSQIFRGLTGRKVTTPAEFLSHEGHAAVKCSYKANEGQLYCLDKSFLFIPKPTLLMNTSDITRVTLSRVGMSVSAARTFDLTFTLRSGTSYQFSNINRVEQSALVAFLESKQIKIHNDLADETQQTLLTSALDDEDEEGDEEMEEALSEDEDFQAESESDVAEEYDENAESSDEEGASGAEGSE
Chain of UniProt O14818 (whole entry, looked up): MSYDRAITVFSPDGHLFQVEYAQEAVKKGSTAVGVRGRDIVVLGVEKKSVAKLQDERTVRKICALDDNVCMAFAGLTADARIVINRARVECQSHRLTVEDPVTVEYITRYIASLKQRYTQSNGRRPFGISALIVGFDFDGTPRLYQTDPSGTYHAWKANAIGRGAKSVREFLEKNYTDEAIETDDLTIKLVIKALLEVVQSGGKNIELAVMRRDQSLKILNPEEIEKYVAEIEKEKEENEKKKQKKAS

QGRWDHETIV
binding intensity (human SCRIB PDZ3-4 tandem (MBP fusion); automated holdup; peptide, crude extract; concentration not given, uncorrected, unit not given; baseline: biotin control resin, higher = stronger binding): 0.582

B1 (NUP62 301-522)
binding (FUS (Homo sapiens, UniProt P35637); pull-down): binds

B2 (POL31)
binding (POL3 (Saccharomyces cerevisiae, UniProt P15436); mass photometry): binds

B3 (rasC Q62L/E157R)
binding (racE T25N/S192D/R186E (Dictyostelium discoideum); pull-down): binds

B4 (POL30 1-258)
binding (PIF1 233-859 (Saccharomyces cerevisiae, UniProt P07271); pull-down): binds

AGER fragment (Homo sapiens) (sequence not shown)
binding (Histone H3.1 (Homo sapiens, UniProt P68431); pull-down): binds

GSGAGKETYY
binding intensity (human SCRIB PDZ3-4 tandem (MBP fusion); automated holdup; peptide, crude extract; concentration not given, uncorrected, unit not given; baseline: biotin control resin, higher = stronger binding): 0.0248

B5 (NUP60 200-318)
binding (NUP85/SEH1 Nup85 1-564 (Saccharomyces cerevisiae); pull-down): binds

Peginesatide
mRNA level (UT7/EPO; RT-qPCR, refers to: EGR2; concentration not given, 90 min, normalized to HPRT1; baseline: vehicle): 6.9 fold

KBTBD2 S252D (Homo sapiens) (sequence not shown)
binding (CUL3 (Homo sapiens, UniProt Q13618); cryo-EM): binds

B6 (SIS1 residues 1-81)
binding (SSA1 T201A (Saccharomyces cerevisiae, UniProt P10591); NMR titration; with: ATP): binds

MSEKPKVYQGVRVKITVKELLQQRRAHQAASGGTRSGG (POU2AF3 1-38 (Homo sapiens, UniProt A8K830-5); sequence looked up)
binding (POU2F3 183-341 (Homo sapiens, UniProt Q9UKI9-1); crystal structure): binds

B7 (lpxC 1-305)
binding (lapB 21-389 (Escherichia coli, UniProt P0AB58); pull-down): binds

B8 (PBXIP1 443-561)
binding (MAPK3 (Homo sapiens, UniProt P27361); pull-down): binds

B9 (cheW)
binding (cheA 1-654 (Escherichia coli, UniProt P07363); HDX-MS; without nucleotide): binds

NGVTKTALEPRARVEKDYGK (gld-3 860-879 I866A (Caenorhabditis elegans, UniProt Q95ZK7); sequence looked up)
binding (fbf-2 164-575 (Caenorhabditis elegans, UniProt Q09312); fluorescence polarisation; peptide): binds

B10
binding (SIN4 1-974 (Saccharomyces cerevisiae, UniProt P32259); cryo-EM): binds

B11 (MDM4 23-150)
binding (TP53 (Homo sapiens, UniProt P04637); ELISA): binds

colistin
MIC (Klebsiella pneumoniae; broth microdilution; clinical isolate RKI-No_461/16): 32 µg/mL

ACKGQGSMDEGTADERAPLIRT (SCARB2 457-478 (Homo sapiens, UniProt Q14108))
binding (AP2A2/AP2B1/AP2M1/AP2S1 core, lacking appendage domains (Mus musculus); pull-down; peptide): binds

pob3 (Schizosaccharomyces pombe, UniProt O94529)
binding (spt16 (Schizosaccharomyces pombe, UniProt O94267); native gel): binds

B12 (McsA)
binding (mcsB C167A (Bacillus subtilis, UniProt P37570); SEC): binds

nusG KOW domain Q177M, selenomethionine (Escherichia coli) (sequence not shown)
binding (rho fragment (Escherichia coli); crystal structure): binds

B13 (Secisbp2 399-846 x)
binding (Eefsec (Mus musculus, UniProt Q9JHW4); EMSA): binds

RPS14 fragment (Kluyveromyces lactis) (sequence not shown)
binding (SUI2 fragment (Saccharomyces cerevisiae); cryo-EM structure): binds

B14 (POMP)
binding (PSMA7 (Homo sapiens, UniProt O14818); cryo-EM): binds

Repeated from above:
B10
binding (SIN4 1-974 (Saccharomyces cerevisiae, UniProt P32259); cryo-EM): binds

B5 (NUP60 200-318)
binding (NUP85/SEH1 Nup85 1-564 (Saccharomyces cerevisiae); pull-down): binds

KBTBD2 S252D (Homo sapiens) (sequence not shown)
binding (CUL3 (Homo sapiens, UniProt Q13618); cryo-EM): binds

B9 (cheW)
binding (cheA 1-654 (Escherichia coli, UniProt P07363); HDX-MS; without nucleotide): binds
